Results gathered from unrelated publications.
Each numbered part is a random draw from the data of one study; scales do not carry over between parts.

Series 1 — technique: protein-binding microarray; molecule type: double-stranded DNA, one strand shown; medium: in vitro; concentration: 250 nM; setting: 60-bp whole probe; with: salmon DNA 0.4 mg/ml; relative to: random background probes; direction: higher = stronger binding; constant ends, left off below: GCCTAGCAC … GTCTTGATTCGCTTGACGCTGCTG
Target: Interferon regulatory factor 5, full length, phosphomimetic (IRF5, Homo sapiens, UniProt Q13568-2, residues 1-514, K96S/S451D/S453D/S456D/S462D)
Strand	log fluorescence
TCACCCCTCAGATCTGCCACTGTGCTA	-0.0378 z-score
GACGGTATCCTTCTCCTGCCGTGCTAG	0.19 z-score
TTAGTTCTCAGTCTCGATTAGTGCTAG	1.24 z-score
CTAGGACTGGGTCTCGGTTAGTGCTAG	-0.366 z-score
GACGATTCCAGTTTCGATACGTGCTAG	9.28 z-score
TCATCTTTACTTCACTCACTGTGCTAG	0.91 z-score
ATAGGACTGGGTCTCGGTTAGTGCTAG	-0.118 z-score
GACGGTCTCGGACTGGGGAAGTGCTAG	-0.467 z-score
TCAACTTTCTTTAACTCACTGTGCTAG	2.16 z-score
TCATGGATATATATCATACTGTGCTAG	0.662 z-score
TTAGGTTTCCTTCTCCTTTAGTGCTAG	1.26 z-score
TTAGGTATCGACATTGGGTTAGTGCTA	2.64 z-score
TTAGGTATCCTTATCCTGTAGTGCTAG	0.0426 z-score
TTAGTACTGAGACTGGATTAGTGCTAG	-0.028 z-score
TTAGATTTCAGTTTCGATCAGTGCTAG	10.1 z-score
TTAGGGTCCCTTTTCCTTTAGTGCTAG	-0.0206 z-score
TTAGATCTCACTTTCGATTAGTGCTAG	9.7 z-score
TCACGTATATTCCCTAGAACTGTGCTA	0.486 z-score
TCCTGTTTGATAATTTTTTTGTGCTAG	0.849 z-score

Series 2 — technique: RNA Bind-n-Seq; molecule type: RNA; medium: in vitro; concentration: 200 nM; setting: whole 134-nt RNA, ends assumed; with: 150 mM KCl; relative to: input library; direction: higher = stronger binding
Target: Fragile X messenger ribonucleoprotein 1, C-terminal low-complexity region (Fmr1, Mus musculus, UniProt P35922)
Strand	log2 enrichment
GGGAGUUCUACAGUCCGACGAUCCACAGACAACACGCACCCACACAGACACAGAGGGAAGGAAAUGGGAUGGGGACAGGGUGCACAGCAGGGCGGGGUAGGACCCCAGCCCCUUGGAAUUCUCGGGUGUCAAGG	1.31
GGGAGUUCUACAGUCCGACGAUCUGGGAGGUGGAUUUUGUGUAUUUUUUUAGCUCAUUUCCAGGGGUGGGAAUUUUUUUUUAAUAUGUGUCAUGAAUAAAGUUGUUUUUGAAAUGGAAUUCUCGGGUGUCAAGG	0.352
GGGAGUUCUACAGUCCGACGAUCCCUGUGCUACACAUCGUAUGUACCGAAUCGGGGAAAAAAGGAAAAAAGGGGAAAAAAGGGAAAGUAUUAUGUUACGCCGUUCGGAUCUGCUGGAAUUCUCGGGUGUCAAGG	-0.472
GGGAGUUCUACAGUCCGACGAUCUCUCAGCACCCUCGUGAAACUGGACAAGAAGCCAGUGGAGACCAACGGUCCUGAUGCCAAUCACGAGUACAGUACAAGCAGCCAGCAUAUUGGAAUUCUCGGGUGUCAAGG	-0.465
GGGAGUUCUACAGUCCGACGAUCAAGUCCUGUGCUACACAUCGUAUGUACCGAAUCGGUUUUUGGUUUUUGGUUUUUGGAAAGUAUUAUGUUACGCCGUUCGGAUCUGCACUUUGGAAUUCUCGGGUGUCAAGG	-0.835
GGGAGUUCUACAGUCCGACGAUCUGUCUCGAGCAGGGGACAAGACGUUCGAGGAGUACCUGGAUGAGUAUUACCGGCUGGACUACGAGGACAUCAUCGACGACCUGCCCUGUCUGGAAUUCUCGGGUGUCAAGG	-0.912
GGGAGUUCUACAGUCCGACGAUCCAAGUCCUGUGCUACACAUCGUAUGUACCGAAUCGGUUUUUUUGGUUUGGAAAGGAAAGUAUUAUGUUACGCCGUUCGGAUCUGCACUUCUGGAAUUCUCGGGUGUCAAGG	-0.918
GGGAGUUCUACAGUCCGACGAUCAAGUCCUGUGCUACACAUCGUAUGUACCGAAUCAAAUUUUUAAAUUUAAACCCAAAAAAGUAUUAUGUUACGCCGUUCGGAUCUGCACUUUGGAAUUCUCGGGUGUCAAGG	0.098
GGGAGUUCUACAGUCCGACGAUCUGUUCUGCAGAGGGGCGGUGUCAUUACUGAUGAAGAGGAAACCUCUAAGAAGAUAGCUGACCAGUUGGACAACAUUGUGGACAUGCGCGAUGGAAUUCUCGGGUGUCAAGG	-1.73

Series 3 — technique: universal PBM; molecule type: double-stranded DNA, one strand shown; medium: in vitro; concentration: not given; direction: higher = stronger binding
Target: Sal-like protein 4, full length isoform B (SALL4, Homo sapiens, UniProt Q9UJQ4-2, residues 1-616)
Setting: 8-mer, flanks averaged, mean of replicates
Strand	E-score
GGATCACC	-0.331
CTACAAAG	0.152
AATGCCTC	-0.0949
CATGTAAG	0.148
TAATTTCA	0.366
AAATCATC	0.155
GGGACCCC	-0.316
ATGTGTAA	0.239
GACATCCA	0.00054
TCAAGACA	0.0559
TCACAACA	0.18
ACGTCCTC	-0.162
ATAGCCAA	0.129
AGGGCCGC	-0.368
CACGGTGA	-0.0799
CAGCCTGG	-0.279
AGGCTCCC	-0.365

Series 4 — technique: RNA Bind-n-Seq; molecule type: RNA; medium: in vitro; concentration: 365 nM; relative to: no-protein control; direction: higher = stronger binding
Target: RNA binding protein fox-1 homolog 2, RRM domain, GST-SBP tag (RBFOX2, Homo sapiens, UniProt O43251-10, residues 100-194)
Setting: natural RNA segment, single round, ends assumed
Residues (chain): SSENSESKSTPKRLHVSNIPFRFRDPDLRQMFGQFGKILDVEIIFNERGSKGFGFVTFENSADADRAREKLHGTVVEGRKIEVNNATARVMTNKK
Strand	RBNS enrichment (R)
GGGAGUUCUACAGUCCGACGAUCUUUCCCCACUCACUUUUUAUUUUUUAAUGAUAAUGGAGAUGUCUGGACCCUUCCUCACCCCACCUGUCGGUCUUGUCCUGGCUCUGCCUGUCCCCCACCGUUGUUCUCGUUGGAAUUCUCGGGUGCCAA	0.603
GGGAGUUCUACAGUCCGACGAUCUCGGCCGAAGACCCAAGAAGGCCUAGUUGCCCGCUGGGCCUGGGGCCCUGCCCAUGCCUGGGCCAGAGUGGCGCUGGGGCCUCGGCUUCCCUUUGGCUCCUGGAAGGCAGUGGAAUUCUCGGGUGCCAA	0.293
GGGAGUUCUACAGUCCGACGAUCCUCCACACAGUGGCCCCAGCCGUGACCACCCUGUACCAGUCCCUGCUGUGUCCUGUCUACCUGUGUGUUCUCUGACUACCGCACUGGCCAUUAAAUAUGGCAGAGACUGCUGGAAUUCUCGGGUGCCAA	0.283
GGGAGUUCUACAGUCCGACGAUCUGGCACUAGGCCCUUCACCUUGACUGUGUGCAUGCAUGACCUGCAAUAGAGCCCACCAACCACAUAGAAGUCCCCUGGCUAGAGUCUGAUGCCUGGUGGCUUACCGGACUUGGAAUUCUCGGGUGCCAA	5.5
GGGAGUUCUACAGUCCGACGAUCCCAUGACAGCUUGGUCAGUGUGCCUAGGCAGGGCACAUUGCCUGGGCAUGUGUAGAGUGAGUGCCCCUGUGAGCUGCUAGGCAAGCAGAGUCUGGCUCUGAGGUGAUGUCUGGAAUUCUCGGGUGCCAA	1.05
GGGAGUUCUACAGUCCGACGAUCCUUCCAUGCAGGAGCACGGCAUGGCGGGAGCGGGGCUGCAGAGUAUCCGAGGUGCUGCCGGGGCAGCGGGAGGUGGCUGGACCCAUCGCAUCUAAAACUGGCCCAGGACAUGGAAUUCUCGGGUGCCAA	1.34
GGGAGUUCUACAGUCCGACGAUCGUAGUCUUCCAAUUGCAGGAGAUCAGCCCUACAGUGUAUUCUACGUGAACCAACAGGGCCUGGCCUUCACUCCUCCAGGCCACAAUGCCCUGGGGUCAAGGGAAAGGAACUGGAAUUCUCGGGUGCCAA	0.407
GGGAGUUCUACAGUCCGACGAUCGUGAGCUUUUCACAUUACCUUAUGUAUACAACAGGAGCUGCGUUGUUUUCUUCUUUUUCUUUUCCUUAUCUGUUGUCCAACAACAGUGCUGACUGUCCGGAUAAGAGCUGUGGAAUUCUCGGGUGCCAA	0.362

Excerpt of the above (series 1):
Strand	log fluorescence
TTAGGTATCGACATTGGGTTAGTGCTA	2.64 z-score
TTAGGTATCCTTATCCTGTAGTGCTAG	0.0426 z-score
TTAGTACTGAGACTGGATTAGTGCTAG	-0.028 z-score
